Measured values gathered from unrelated publications.
Each numbered part is a random draw from the data of one study; scales do not carry over between parts. Substitutions count along the parent as printed.

Study 1 — method: RNA Bind-n-Seq; form: RNA; medium: in vitro; concentration: 365 nM; reference: no-protein control; direction: higher = stronger binding
Target: RNA binding protein fox-1 homolog 2, RRM domain, GST-SBP tag (RBFOX2, Homo sapiens, UniProt O43251-10, residues 100-194)
Setting: natural RNA segment, single round, ends assumed
Constant ends, left off below: GGGAGUUCUACAGUCCGACGAUC … UGGAAUUCUCGGGUGCCAA
Residues (chain): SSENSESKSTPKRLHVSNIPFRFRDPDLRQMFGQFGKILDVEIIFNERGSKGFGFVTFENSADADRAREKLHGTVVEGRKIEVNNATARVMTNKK
`UGAGCAGCAUUCCUGGCCUCCAUCCACAAGAUACCUGUAGCAGUGUCCUGCCAACGGUAACAAUCAAGUAUGUCAUCAGACAUUGCCCAAUGUCCCCAGGGGGCAACACC`: “RBNS enrichment (R)” 0.205.
For `CUUCCCGUGGCGCCGAUCCUCUGACUCUAUAGCGCCAGCUUGGACAGAUUGAGGUCUCUGUGGCUUUGGUGACCCUGCUUAAGCAUUCCCACCGUGUCCCUGUUCUGCGC`, “RBNS enrichment (R)” read 0.372.
Under “RBNS enrichment (R)”, `GAUCAUGAUUUCCAGCCCACGGAGCCAGCAUUUGAACCUUGUAUAAUUAACUUUCAGUUAUGAUUUCCCAUCGACAUUUUCUUUGCCCUGUUUGUAGCUGAUUGUUGUGU` is recorded as 0.481.
`GUGUGGUGGUCGCUGGGACCCGUGCCGUGACCCCUAUUUAGCUGUGUUUUGGACUCCGUGUCUUCAGUGGUUUGUUAGUUACCAUUACGUAAACCUUGUCUGAGUAGUGU` — result for “RBNS enrichment (R)”: 0.646.
`UUACAAACUCAAGAAAAACAGACUCACUUGAAAAAAUGGAUGCCAGUCACCUGGUUCCCACUACUGUCGUAGCAGAUAGCGAAGGGACAAUCUGAGACUUGUAGAGAUGA` — result for “RBNS enrichment (R)”: 0.383.
Under “RBNS enrichment (R)”, `GCUUAGGACACACAGAUAAAGUAGAGCUGAAACACGGGCCAAAACAUCCCCAGACAAGGAUGGCACAAGAGGCCAAAUUUGAAGGCCUUGGGAGAGAAGCCAUUUCCCCU` is recorded as 0.497.
`UCCAGGGUGAUGAGUGUGGACGGGGGCACCAGUCAGUUCUCCCUUGAAGUAAACCUCAGUGCCUGAGACUUUUCUACCAAGCCACACAGCUGCAGCAACUGCAGAUACUG`: “RBNS enrichment (R)” 0.453.
Under “RBNS enrichment (R)”, `UGUGCUGGAUGUUGCUCCUUUCCCCGAUUUCAAGUUGAUGUUGACAGAAUUUCAGUAGCUUACAUAAAUCCUGAGAAUGUGAUUGGUUUUAAAAAGUAAGGUUUAAAGUC` is recorded as 5.03.
`GGGUUCUCUGAUAACCUAUGGGAAUGUUUGGAUGCCAGUUGGGCUAGUGAAUCGCCACUGUACUGUAAUAAUGGUUAUUUACCUCUGUGCUGUUUUAAUUACCUAACGUC` — result for “RBNS enrichment (R)”: 1.59.
`AUCAGAAAAACCAUAGUGAAGAAAAACUUAACUGAAUUGGCAAAGACUUUGGGGGCAGAAAACCCUAUAAGUAUAACCAAGAGGAAAGUUUUUCACUAAGAAUUUAGUUA` — result for “RBNS enrichment (R)”: 0.379.
`CCCAGGGCCACUGGGGGAAUGUUUUAUGAAAUCAUGUAGAGUGCUGUAGUUUUGAAGUCAUCCGUUUUUUGAUGACAAAGUACCUGUGGAAAACCAGGGAUAUUUUUUUU`: “RBNS enrichment (R)” 0.703.
`ACAGGGGGGUCGGAAGCCUGUCCUCACCGUCUCGGGGGUUGUGGCCCCCGCCCCCUCCCUAUAUGCACCCCUGGAACCAGCAAGUCCCAGACAAGGAGAGCGGAGGAGGA` — result for “RBNS enrichment (R)”: 0.383.

Study 2 — method: universal PBM; form: double-stranded DNA, one strand shown; medium: in vitro; concentration: 600 nM; direction: higher = stronger binding
Target: Sal-like protein 4, full length isoform A (SALL4, Homo sapiens, UniProt Q9UJQ4, residues 1-1053)
Sequence of UniProt Q9UJQ4 (whole entry, looked up): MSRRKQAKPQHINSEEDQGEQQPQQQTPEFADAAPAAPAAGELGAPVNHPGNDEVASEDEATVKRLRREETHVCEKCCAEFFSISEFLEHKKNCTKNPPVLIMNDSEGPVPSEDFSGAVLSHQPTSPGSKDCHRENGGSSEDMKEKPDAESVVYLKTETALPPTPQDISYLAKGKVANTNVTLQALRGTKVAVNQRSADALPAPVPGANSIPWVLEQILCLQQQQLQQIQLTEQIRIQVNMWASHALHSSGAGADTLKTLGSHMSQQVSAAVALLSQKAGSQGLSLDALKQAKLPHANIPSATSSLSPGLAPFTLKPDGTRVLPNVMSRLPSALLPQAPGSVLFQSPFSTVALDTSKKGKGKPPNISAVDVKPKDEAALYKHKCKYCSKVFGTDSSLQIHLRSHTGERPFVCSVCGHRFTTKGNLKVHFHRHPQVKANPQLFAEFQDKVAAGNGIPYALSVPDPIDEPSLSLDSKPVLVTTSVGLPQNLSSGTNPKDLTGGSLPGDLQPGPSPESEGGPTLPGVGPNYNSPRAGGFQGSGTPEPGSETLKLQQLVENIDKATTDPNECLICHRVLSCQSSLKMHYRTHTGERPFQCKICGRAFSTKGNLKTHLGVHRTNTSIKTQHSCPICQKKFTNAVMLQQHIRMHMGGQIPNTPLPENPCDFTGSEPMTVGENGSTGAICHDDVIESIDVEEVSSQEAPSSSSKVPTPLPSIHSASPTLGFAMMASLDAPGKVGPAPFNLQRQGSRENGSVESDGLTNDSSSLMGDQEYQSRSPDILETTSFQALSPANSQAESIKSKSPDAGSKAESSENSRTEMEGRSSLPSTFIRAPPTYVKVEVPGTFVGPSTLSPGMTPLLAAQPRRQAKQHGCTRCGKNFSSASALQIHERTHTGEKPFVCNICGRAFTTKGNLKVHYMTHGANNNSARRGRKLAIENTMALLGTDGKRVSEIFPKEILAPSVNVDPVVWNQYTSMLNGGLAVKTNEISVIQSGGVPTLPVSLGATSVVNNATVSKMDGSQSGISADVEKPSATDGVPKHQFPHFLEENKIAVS
Setting: 8-mer, flanks averaged, mean of replicates
For `AGCATCAC`, the E-score was -0.172.
`TACCAAAA` gave an E-score of 0.226.
`CGCAAAAG` gave an E-score of -0.00559.
The E-score of `AGTTTCTG` is reported as -0.0182.
`CTAAAGGC` has an E-score of -0.0953.
For `AAGGAGGG`, the E-score was -0.214.
The E-score of `AGCCGACC` is reported as -0.311.
`CCCGTCAG` has an E-score of -0.324.
`ACGTCAAG` gave an E-score of -0.022.
The E-score of `CAGAGGTC` is reported as -0.212.
The E-score of `GTCCCCTA` is reported as -0.27.
`GTCTTCCA` gave an E-score of -0.0588.
With `CCGCCTTC` the E-score was -0.233.
With `CCCCCCCC` the E-score was -0.375.
The E-score of `CAGGTAAC` is reported as -0.0565.
With `ATACGGTA` the E-score was 0.17.
The E-score of `GGCTATGA` is reported as 0.0148.
With `AGGTGCTA` the E-score was 0.101.
For `GACCGAAA`, the E-score was -0.0417.
The E-score of `GGGACTAA` is reported as 0.00668.
`CTAATCTA` has an E-score of 0.161.
For `TACTGTCA`, the E-score was 0.14.
For `CTCCGCAA`, the E-score was -0.137.

Study 3 — target: CCNA2, cyclin fold, Cln2 fusion (human); method: yeast growth competition, sequencing; medium: yeast; setting: weak parent motif; reference: not given; direction: higher = stronger binding
Starting sequence: SLBP docking peptide (human); ARYKRKLLINDFG
`N10V` — result for “normalised enrichment score”: 0.991.
Under “normalised enrichment score”, `A1W` is recorded as 0.76.
For `F12H`, “normalised enrichment score” read 0.602.
For `I9V`, “normalised enrichment score” read 0.834.
`G13T`: “normalised enrichment score” 1.28.
`L7E`: “normalised enrichment score” 0.145.
Under “normalised enrichment score”, `K4L` is recorded as 1.5.
Under “normalised enrichment score”, `F12R` is recorded as 1.38.
Under “normalised enrichment score”, `K4Q` is recorded as 1.16.
For `L7I`, “normalised enrichment score” read -0.00511.
Under “normalised enrichment score”, `N10W` is recorded as 2.68.
`F12I`: “normalised enrichment score” 0.694.
`L8A` — result for “normalised enrichment score”: 1.39.
`G13C`: “normalised enrichment score” 0.925.
`Y3Q`: “normalised enrichment score” 0.69.
For `K4W`, “normalised enrichment score” read 2.04.
`A1C`: “normalised enrichment score” 0.742.
`F12W`: “normalised enrichment score” 0.82.
Under “normalised enrichment score”, `G13Y` is recorded as 1.38.
`G13M`: “normalised enrichment score” 2.45.
`R2E`: “normalised enrichment score” 1.64.
`K6P` — result for “normalised enrichment score”: 0.407.
`I9C`: “normalised enrichment score” 1.51.

Study 4 — method: protein-binding microarray; form: double-stranded DNA, one strand shown; medium: in vitro; concentration: not given; direction: higher = stronger binding
Target: Protein max, full length (MAX, Homo sapiens, UniProt P61244-2, residues 1-151)
Setting: k-mer, scored over probes, only values ≥0.25
`ATGTGACC` has an E-score of 0.374.
With `CGGCATGA` the E-score was 0.357.
The E-score of `CCTCATGC` is reported as 0.389.
The E-score of `ATGCGCAT` is reported as 0.405.
`CGTGGGGA` has an E-score of 0.289.
`GATCATGC` has an E-score of 0.386.
`ATCACATG` has an E-score of 0.478.
The E-score of `TCACGTGA` is reported as 0.489.
`ACGCCCGA` gave an E-score of 0.279.
For `TGCGTCCA`, the E-score was 0.284.
With `AATCACAC` the E-score was 0.293.
The E-score of `ACGTGCTA` is reported as 0.451.
The E-score of `ATTCACGC` is reported as 0.326.
`AAGCGTGC` has an E-score of 0.42.
The E-score of `CGTGGGCC` is reported as 0.368.
`CGTGATCC` has an E-score of 0.344.
For `ACATGCCG`, the E-score was 0.403.
The E-score of `ACGCGTCA` is reported as 0.324.
For `AGCCACGA`, the E-score was 0.308.
`CGCGTGAC` has an E-score of 0.462.

Study 5 — method: protein-binding microarray; form: double-stranded DNA, one strand shown; medium: in vitro; concentration: 940 nM top; setting: 60-bp whole probe; together with: salmon DNA 0.4 mg/ml; reference: random background probes; direction: higher = stronger binding; constant ends, left off below: GCCTAGCAC … GTCTTGATTCGCTTGACGCTGCTG
Target: Interferon regulatory factor 5, full length, phosphomimetic (IRF5, Homo sapiens, UniProt Q13568-2, residues 1-514, S451D/S453D/S456D/S462D)
For `GACGGTTTTGGGACTGGGGACGTGCTA`, “fitted relative affinity” read 1.02 z-score.
For `GACGGATTCGGTATCGGGACGTGCTAG`, “fitted relative affinity” read 2.33 z-score.
Under “fitted relative affinity”, `GACGATTTGAGACTGGAGACGTGCTAG` is recorded as -0.412 z-score.
Under “fitted relative affinity”, `TCAGATCTCAGTCTCGATTAGTGCTAG` is recorded as 3.31 z-score.
`TTAGTACTGCTTCTCCTTTAGTGCTAG`: “fitted relative affinity” 0.669 z-score.
For `GAGAAAATGATTTTTTTCATGTGCTAG`, “fitted relative affinity” read -0.0134 z-score.
`ACCCATTGAGATTTCCATTAGTGCTAG`: “fitted relative affinity” 0.579 z-score.
For `TTAGGTTTCCCACTGCTTTAGTGCTAG`, “fitted relative affinity” read 1.49 z-score.
`TTAGATTTCAGACTGGATTAGTGCTAG` — result for “fitted relative affinity”: -0.108 z-score.
`TTAGGTTTAGGTTCCGGTTAGTGCTAG`: “fitted relative affinity” 1.9 z-score.
`TTAGATATCGGGTATCGGTTAGTGCTA` — result for “fitted relative affinity”: 3.41 z-score.
Under “fitted relative affinity”, `GTAGGTTTCGGGTTTCGGTTAGTGCTA` is recorded as 11.1 z-score.
For `GACGGACTGGTGTTTCGGGACGTGCTA`, “fitted relative affinity” read 0.545 z-score.
For `GACAGTCTCCTTCTCCTGACGTGCTAG`, “fitted relative affinity” read 0.879 z-score.
For `GACGGTCTTGGACTGGGGACGTGCTAG`, “fitted relative affinity” read -0.294 z-score.
For `AGGGTCATCCATCTGAACCAGTGCTAG`, “fitted relative affinity” read -0.0233 z-score.
`CCCGCCCCGCCCCGCCCGCAGTGCTAG`: “fitted relative affinity” -0.459 z-score.
Under “fitted relative affinity”, `TCACTTTTTTTTTTTTTACTGTGCTAG` is recorded as 1.49 z-score.
For `TTAGAACTGGGACTGGATTAGTGCTAG`, “fitted relative affinity” read -0.602 z-score.
For `TAGCGTATATTCCCTAGAATAGTGCTA`, “fitted relative affinity” read -0.306 z-score.
For `GACAGTCTCCTTATCCTGACGTGCTAG`, “fitted relative affinity” read 0.861 z-score.
For `TTAGATCACAGTTTCGATTAGTGCTAG`, “fitted relative affinity” read 6.41 z-score.
For `TGAGAACTGAGTTTCGATTAGTGCTAG`, “fitted relative affinity” read 8.44 z-score.
For `TTAGGACTGGACACTGAGTTAGTGCTA`, “fitted relative affinity” read -0.306 z-score.
Under “fitted relative affinity”, `GACGATTTCGGGACTGGATACGTGCTA` is recorded as -0.0306 z-score.
